Results collected from several papers.
Each line is one published result; not all experiments were run side by side. ± marks the error that the study gave.
NR1H2 ligand-binding domain: Oxysterols receptor LXR-beta, ligand-binding domain (NR1H2, Homo sapiens, UniProt P55055)
Chain of UniProt P55055 (whole entry, looked up): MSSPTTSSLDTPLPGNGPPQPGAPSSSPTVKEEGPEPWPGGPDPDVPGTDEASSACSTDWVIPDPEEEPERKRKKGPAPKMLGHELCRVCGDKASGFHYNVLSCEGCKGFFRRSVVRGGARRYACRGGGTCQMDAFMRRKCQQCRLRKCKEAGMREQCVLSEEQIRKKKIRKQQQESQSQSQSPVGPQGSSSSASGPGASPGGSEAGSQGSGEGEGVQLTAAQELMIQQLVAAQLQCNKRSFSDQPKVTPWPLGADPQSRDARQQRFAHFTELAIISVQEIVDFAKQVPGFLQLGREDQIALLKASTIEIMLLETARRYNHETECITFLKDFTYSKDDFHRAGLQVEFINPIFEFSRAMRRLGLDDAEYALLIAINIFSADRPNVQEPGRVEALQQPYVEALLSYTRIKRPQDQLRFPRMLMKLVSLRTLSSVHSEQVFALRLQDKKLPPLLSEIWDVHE
PTH1R: Parathyroid hormone/parathyroid hormone-related peptide receptor (PTH1R, Homo sapiens, UniProt Q03431)
FFAR3: Free fatty acid receptor 3 (FFAR3, Homo sapiens, UniProt O14843)
Chain of UniProt O14843 (whole entry, looked up): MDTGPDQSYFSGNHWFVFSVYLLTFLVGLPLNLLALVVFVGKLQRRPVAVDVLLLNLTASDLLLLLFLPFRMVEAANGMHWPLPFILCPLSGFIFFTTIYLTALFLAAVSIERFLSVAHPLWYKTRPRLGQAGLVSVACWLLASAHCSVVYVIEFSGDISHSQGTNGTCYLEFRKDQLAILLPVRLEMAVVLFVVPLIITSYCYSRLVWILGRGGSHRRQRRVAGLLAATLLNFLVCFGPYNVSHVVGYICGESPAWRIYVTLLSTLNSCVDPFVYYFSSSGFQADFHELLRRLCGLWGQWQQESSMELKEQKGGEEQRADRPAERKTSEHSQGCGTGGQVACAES
Chain of UniProt P50391 (whole entry, looked up): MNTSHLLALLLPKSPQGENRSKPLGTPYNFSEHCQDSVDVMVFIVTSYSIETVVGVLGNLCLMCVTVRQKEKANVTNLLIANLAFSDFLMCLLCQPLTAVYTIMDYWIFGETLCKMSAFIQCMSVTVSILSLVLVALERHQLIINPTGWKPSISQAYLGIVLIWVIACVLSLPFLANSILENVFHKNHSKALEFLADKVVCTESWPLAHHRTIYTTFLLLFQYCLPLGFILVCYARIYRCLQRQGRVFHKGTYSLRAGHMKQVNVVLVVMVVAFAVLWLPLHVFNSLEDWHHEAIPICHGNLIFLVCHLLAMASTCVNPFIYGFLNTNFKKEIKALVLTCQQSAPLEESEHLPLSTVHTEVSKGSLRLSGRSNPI
Chain of UniProt P30969 (whole entry, looked up): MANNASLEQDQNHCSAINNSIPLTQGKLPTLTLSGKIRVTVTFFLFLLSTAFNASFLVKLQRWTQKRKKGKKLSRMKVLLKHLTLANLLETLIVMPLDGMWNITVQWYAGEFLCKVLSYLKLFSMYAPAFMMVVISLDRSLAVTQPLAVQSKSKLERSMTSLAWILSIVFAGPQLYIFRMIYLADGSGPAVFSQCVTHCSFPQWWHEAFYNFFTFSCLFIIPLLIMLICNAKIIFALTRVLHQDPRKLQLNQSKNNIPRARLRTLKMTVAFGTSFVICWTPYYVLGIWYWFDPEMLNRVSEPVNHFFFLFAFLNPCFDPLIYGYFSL
Chain of UniProt Q9WTJ5 (whole entry, looked up): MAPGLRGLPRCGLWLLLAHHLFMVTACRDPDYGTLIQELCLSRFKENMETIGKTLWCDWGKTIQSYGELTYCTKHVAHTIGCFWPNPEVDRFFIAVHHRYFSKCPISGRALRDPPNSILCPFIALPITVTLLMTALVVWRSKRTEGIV
Chain of UniProt P21761 (whole entry, looked up): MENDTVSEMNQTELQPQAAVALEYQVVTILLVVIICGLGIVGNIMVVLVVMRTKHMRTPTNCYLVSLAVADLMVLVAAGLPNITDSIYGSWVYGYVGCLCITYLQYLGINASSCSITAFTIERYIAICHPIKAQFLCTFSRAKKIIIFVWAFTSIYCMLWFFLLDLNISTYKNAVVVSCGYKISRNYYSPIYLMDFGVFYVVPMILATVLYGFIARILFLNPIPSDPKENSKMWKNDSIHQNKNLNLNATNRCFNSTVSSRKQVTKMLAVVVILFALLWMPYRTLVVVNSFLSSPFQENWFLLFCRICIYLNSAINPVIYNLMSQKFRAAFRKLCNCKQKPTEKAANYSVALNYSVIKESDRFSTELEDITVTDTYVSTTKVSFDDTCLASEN
Chain of UniProt Q96R45 (whole entry, looked up): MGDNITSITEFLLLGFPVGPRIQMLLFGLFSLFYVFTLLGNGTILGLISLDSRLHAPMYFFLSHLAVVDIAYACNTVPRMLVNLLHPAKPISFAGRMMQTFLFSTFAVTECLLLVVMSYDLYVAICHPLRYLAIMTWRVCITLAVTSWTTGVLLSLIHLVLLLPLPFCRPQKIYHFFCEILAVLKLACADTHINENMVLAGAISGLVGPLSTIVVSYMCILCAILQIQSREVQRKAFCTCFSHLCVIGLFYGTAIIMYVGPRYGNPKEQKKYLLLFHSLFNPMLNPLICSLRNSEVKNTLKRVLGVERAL
Chain of UniProt Q6W5P4 (whole entry, unmodified, looked up): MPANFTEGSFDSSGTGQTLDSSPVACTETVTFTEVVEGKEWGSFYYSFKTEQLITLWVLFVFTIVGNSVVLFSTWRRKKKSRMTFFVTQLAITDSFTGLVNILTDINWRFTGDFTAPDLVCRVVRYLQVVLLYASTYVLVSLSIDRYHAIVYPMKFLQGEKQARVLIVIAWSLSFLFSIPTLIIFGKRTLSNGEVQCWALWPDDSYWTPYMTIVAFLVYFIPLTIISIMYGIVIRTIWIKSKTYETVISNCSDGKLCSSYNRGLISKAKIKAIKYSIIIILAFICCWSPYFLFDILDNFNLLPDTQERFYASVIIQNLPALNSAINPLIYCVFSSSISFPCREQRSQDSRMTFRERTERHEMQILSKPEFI
Chain of UniProt P47895 (whole entry, looked up): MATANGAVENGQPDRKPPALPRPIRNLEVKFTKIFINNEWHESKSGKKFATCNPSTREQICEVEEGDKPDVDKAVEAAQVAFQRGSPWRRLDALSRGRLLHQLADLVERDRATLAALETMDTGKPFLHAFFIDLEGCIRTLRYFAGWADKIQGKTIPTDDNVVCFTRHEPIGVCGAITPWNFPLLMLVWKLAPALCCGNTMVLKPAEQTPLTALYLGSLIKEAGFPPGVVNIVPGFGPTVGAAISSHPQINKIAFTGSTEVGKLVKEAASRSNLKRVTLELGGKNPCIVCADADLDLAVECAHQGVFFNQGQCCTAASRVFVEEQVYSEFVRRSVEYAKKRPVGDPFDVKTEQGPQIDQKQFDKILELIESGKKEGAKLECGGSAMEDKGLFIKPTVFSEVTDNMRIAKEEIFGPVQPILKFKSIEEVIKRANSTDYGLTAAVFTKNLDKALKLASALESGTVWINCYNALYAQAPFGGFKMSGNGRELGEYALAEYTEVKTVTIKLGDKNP
Chain of UniProt P51812 (whole entry, looked up): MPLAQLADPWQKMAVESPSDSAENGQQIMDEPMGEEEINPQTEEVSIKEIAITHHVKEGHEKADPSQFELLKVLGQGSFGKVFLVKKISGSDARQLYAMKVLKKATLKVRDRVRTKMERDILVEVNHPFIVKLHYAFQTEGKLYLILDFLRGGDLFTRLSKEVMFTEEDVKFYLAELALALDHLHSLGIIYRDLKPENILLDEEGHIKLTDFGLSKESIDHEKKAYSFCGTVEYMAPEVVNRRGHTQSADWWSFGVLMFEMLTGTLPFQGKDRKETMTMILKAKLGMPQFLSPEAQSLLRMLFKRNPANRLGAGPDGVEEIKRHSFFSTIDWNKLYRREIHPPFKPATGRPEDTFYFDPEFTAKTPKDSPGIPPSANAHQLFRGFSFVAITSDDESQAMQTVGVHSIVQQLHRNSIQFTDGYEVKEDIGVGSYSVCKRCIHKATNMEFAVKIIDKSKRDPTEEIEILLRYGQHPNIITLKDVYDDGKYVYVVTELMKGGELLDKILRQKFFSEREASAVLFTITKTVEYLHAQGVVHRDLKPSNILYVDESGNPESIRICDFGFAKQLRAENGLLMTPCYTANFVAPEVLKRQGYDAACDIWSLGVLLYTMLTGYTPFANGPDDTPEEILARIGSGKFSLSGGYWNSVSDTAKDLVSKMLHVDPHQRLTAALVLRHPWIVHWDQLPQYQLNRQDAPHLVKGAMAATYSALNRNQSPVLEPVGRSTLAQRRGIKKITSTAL
Chain of UniProt P43119 (whole entry, looked up): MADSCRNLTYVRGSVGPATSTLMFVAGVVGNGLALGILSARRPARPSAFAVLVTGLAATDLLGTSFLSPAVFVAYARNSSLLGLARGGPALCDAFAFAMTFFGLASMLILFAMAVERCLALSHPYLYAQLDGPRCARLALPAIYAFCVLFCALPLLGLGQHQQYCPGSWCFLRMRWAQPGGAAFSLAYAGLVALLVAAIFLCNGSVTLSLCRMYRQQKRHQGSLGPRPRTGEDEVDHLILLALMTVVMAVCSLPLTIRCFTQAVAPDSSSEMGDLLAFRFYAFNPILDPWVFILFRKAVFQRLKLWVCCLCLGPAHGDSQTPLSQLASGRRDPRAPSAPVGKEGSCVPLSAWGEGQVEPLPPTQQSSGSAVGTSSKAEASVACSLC
Chain of UniProt Q60755 (whole entry, looked up): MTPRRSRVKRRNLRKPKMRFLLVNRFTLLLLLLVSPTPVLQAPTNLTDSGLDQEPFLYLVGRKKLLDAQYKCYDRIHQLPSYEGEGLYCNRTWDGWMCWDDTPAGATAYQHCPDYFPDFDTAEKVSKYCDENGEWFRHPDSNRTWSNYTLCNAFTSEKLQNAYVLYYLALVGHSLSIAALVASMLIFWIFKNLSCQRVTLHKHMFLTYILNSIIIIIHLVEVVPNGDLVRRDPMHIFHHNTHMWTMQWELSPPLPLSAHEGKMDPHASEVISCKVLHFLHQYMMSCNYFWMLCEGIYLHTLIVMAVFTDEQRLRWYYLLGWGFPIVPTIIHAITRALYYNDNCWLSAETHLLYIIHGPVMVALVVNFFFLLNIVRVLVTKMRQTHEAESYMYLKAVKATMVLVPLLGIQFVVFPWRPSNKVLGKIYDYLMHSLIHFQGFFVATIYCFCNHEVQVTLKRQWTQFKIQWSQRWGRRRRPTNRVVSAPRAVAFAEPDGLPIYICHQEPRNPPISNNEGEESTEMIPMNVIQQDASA

Structure (SMILES) | target or system | test | test system | setting | how to read | endpoint | result
CC[C@H](C)[C@H](NC(=O)[C@H](CCC(N)=O)NC(=O)[C@H](Cc1c[nH]cn1)NC(=O)[C@H](C)NC(=O)[C@H](CC(C)C)NC(=O)[C@H](CCCCN)NC(=O)[C@H](CCC(N)=O)NC(=O)[C@@H](NC(=O)[C@@H](NC(=O)[C@@H]1CSSC[C@H](NC(=O)CNC(=O)[C@H](Cc2ccccc2)NC(=O)[C@H](CO)NC(=O)[C@H](CCCNC(=N)N)NC(=O)[C@H](CC(C)C)NC(=O)CNC(=O)[C@H](CCC(N)=O)NC(=O)[C@H](Cc2ccccc2)NC(=O)[C@H](CC(N)=O)NC(=O)[C@H](CC(N)=O)NC(=O)[C@H](CCSC)NC(=O)[C@H](CO)NC(=O)[C@H](CCC(N)=O)NC(=O)[C@H](CCCNC(=N)N)NC(=O)[C@@H](N)Cc2ccc(O)cc2)C(=O)N[C@@H](CCCNC(=N)N)C(=O)N[C@@H](Cc2ccccc2)C(=O)NCC(=O)N[C@@H]([C@@H](C)O)C(=O)N1)[C@@H](C)O)C(C)C)C(=O)N[C@@H](Cc1ccc(O)cc1)C(=O)N[C@@H](CCC(N)=O)C(=O)N[C@@H](Cc1ccccc1)C(=O)N[C@H](C(=O)N[C@@H](CC(=O)O)C(=O)N[C@@H](CCCCN)C(=O)N[C@@H](CC(=O)O)C(=O)N[C@@H](CCCCN)C(=O)N[C@@H](CC(=O)O)C(=O)N[C@@H](CC(N)=O)C(=O)N[C@H](C(=O)N[C@@H](C)C(=O)N1CCC[C@H]1C(=O)N[C@@H](CCCNC(=N)N)C(=O)N[C@@H](CO)C(=O)N[C@@H](CCCCN)C(=O)N[C@H](C(=O)N[C@@H](CO)C(=O)N1CCC[C@H]1C(=O)N[C@@H](CCC(N)=O)C(=O)NCC(=O)N[C@@H](Cc1ccc(O)cc1)C(N)=O)[C@@H](C)CC)C(C)C)[C@@H](C)O | Calcr/Ramp1 (Mus musculus, UniProt Q60755+Q9WTJ5) | cAMP production, agonist | COS-7, transfected | 15 min, 37 °C, added: IBMX 1 mM | – | EC50 | 0.0977 µM
Cn1c(=O)oc2ccc(-c3ccc(CC(C#N)NC(=O)C4CNCCCO4)c(F)c3)cc21 (stereo not shown) | – | – | human | oral, 20 mg once daily, TEAE, multiple ascending dose | – | skin exfoliation incidence | 11.1%
C=CCc1cccc(CNc2nc3ccccc3n2CCC)c1O | ALDH1A3 (Homo sapiens, UniProt P47895) | enzyme activity | – | pH 7.5, 25 °C, added: propionaldehyde 100 µM, NAD+ 200 µM | – | EC50 | 0.64 ± 0.16 µM
CCOC(=O)CNc1ccc(C2=Nn3c(nnc3-c3ccccc3OCC)SC2)cc1 | CXCR4 (Homo sapiens, UniProt P61073) | β-arrestin recruitment, agonist | – | – | – | EC50 | > 5 µM
NC(=O)[C@@H]1CCCN1C(=O)[C@H](Cc1cn(Cc2ccccc2)cn1)NC(=O)c1cnccn1 | Thyrotropin-releasing hormone receptor (Mus musculus, UniProt P21761) | calcium signal, agonist, fluorescence | – | – | – | EC50 | 19.1 µM
CC(Oc1cc(-c2ccccc2)nc2cnccc12)C(=O)N(C)c1ccccc1 (stereo not shown) | human leukocytes | binding | – | – | baseline: LAB over HAB genotype | Ki ratio | 33 ± 20
CN(C(=O)c1cccc(F)c1)c1ccc(C(O)(C(F)(F)F)C(F)(F)F)cc1 | NR1H2 ligand-binding domain | agonist | – | concentration not given | – | EC50 | 1.08 ± 0.02 µM
COc1cc(CNC(=O)C[C@H](C)CCC=C(C)C)ccc1OCc1cn(-c2ccc([N+](=O)[O-])cc2)nn1 | KM12 | SRB | – | 10 µM, 48 h | – | growth percent | 86.8%
CN(C(=O)c1c(F)cc(F)cc1F)c1ccc(C(O)(C(F)(F)F)C(F)(F)F)cc1 | NR1H2 ligand-binding domain | agonist | – | concentration not given | – | EC50 | 1.3 ± 0.03 µM
CC(C)CN(NC(=O)[C@H](CCCNC(=N)N)NC(=O)[C@H](Cc1ccc(O)cc1)NC(=O)CCCCCCC(=O)N[C@@H](Cc1ccc(O)cc1)C(=O)N[C@@H](CCCNC(=N)N)C(=O)NN(CC(C)C)C(=O)N[C@@H](CCCNC(=N)N)C(=O)N[C@@H](Cc1ccc(O)cc1)C(N)=O)C(=O)N[C@@H](CCCNC(=N)N)C(=O)N[C@@H](Cc1ccc(O)cc1)C(N)=O | NPY4R (Homo sapiens, UniProt P50391) | reporter gene, agonist, luciferase | – | – | – | EC50 | 0.22 µM
C=C1CC[C@H](OCCCNC(=O)CCOCCOCCOCCOCCOCCOCCOCCOCCOCCOCCOCCOCCOCCOCCOCCOCCOCCOCCOCCOCCOCCOCCOCCOCCOCCOCCOCCOCCOCCOCCOCCOCCOCCOCCOCCOCCNC(=O)CCN2C(=O)CC(SC[C@H](NC(=O)[C@H](Cc3ccccc3)NC(=O)[C@H](CC(N)=O)NC(=O)[C@H](Cc3c[nH]cn3)NC(=O)[C@@H](NC(=O)[C@H](CC(=O)O)NC(=O)[C@H](CCC(N)=O)NC(=O)[C@H](CC(C)C)NC(=O)[C@H](CCCCN)NC(=O)[C@H](CCCCN)NC(=O)[C@H](CCCNC(=N)N)NC(=O)[C@H](CC(C)C)NC(=O)[C@H](Cc3c[nH]c4ccccc34)NC(=O)[C@H](CCC(=O)O)NC(=O)[C@@H](NC(=O)[C@H](CCCNC(=N)N)NC(=O)[C@H](CCC(=O)O)NC(=O)[C@H](CCSC)NC(=O)[C@H](CO)NC(=O)[C@H](CC(N)=O)NC(=O)[C@H](CC(C)C)NC(=O)[C@H](Cc3c[nH]cn3)NC(=O)[C@H](CCCCN)NC(=O)CNC(=O)[C@H](CC(C)C)NC(=O)[C@H](CC(N)=O)NC(=O)[C@H](Cc3c[nH]cn3)NC(=O)[C@H](CCSC)NC(=O)[C@H](CC(C)C)NC(=O)[C@H](CCC(N)=O)NC(=O)[C@@H](NC(=O)[C@H](CCC(=O)O)NC(=O)[C@H](CO)NC(=O)[C@@H](NC(=O)[C@@H](N)CO)C(C)C)[C@@H](C)CC)C(C)C)C(C)C)C(=O)O)C2=O)C/C1=C/C=C1\CCC[C@]2(C)[C@@H]([C@H](C)CCCC(C)(C)O)CC[C@@H]12 (stereo partly shown) | PTH1R | calcium signal, agonist, fluorescence | – | – | – | EC50 | 0.0237 µM
COc1cc(CNC(=O)C[C@H](C)CCC=C(C)C)ccc1OCc1cn(-c2ccccc2[N+](=O)[O-])nn1 | HOP-92 | SRB | – | 10 µM, 48 h | – | growth percent | 57.5%
CC(C)COC1O[C@@H]2O[C@@]3(C)CC[C@H]4[C@H](C)CCC([C@H]1C)[C@@]24OO3 (stereo partly shown) | ABCB1 (Homo sapiens, UniProt P08183) | transport inhibition, inhibitor, flow cytometry | CEM/ADR5000 leukaemia | added: calcein-AM 1 µM | – | EC50 | 61.8 ± 9.62 µM
CCCC(=O)O | FFAR3 | agonist | – | – | – | EC50 | 107 µM
CC(C=O)Cc1ccc(C(C)(C)C)cc1 (stereo not shown) | Olfactory receptor 2A7 (OR2A7, Homo sapiens, UniProt Q96R45) | GFP reporter gene, agonist | yeast expressing OR2A7 | 4 h, 1% DMSO | – | EC50 | 110 µM
CC[C@H](C)[C@H](NC(=O)[C@H](CCC(=O)O)NC(=O)[C@H](CO)NC(=O)[C@@H](NC(=O)[C@@H](N)CO)C(C)C)C(=O)N[C@@H](CCC(N)=O)C(=O)N[C@@H](CC(C)C)C(=O)N[C@@H](CCSC)C(=O)N[C@@H](Cc1c[nH]cn1)C(=O)N[C@@H](CC(N)=O)C(=O)N[C@@H](CC(C)C)C(=O)NCC(=O)N[C@@H](CCCCN)C(=O)N[C@@H](Cc1c[nH]cn1)C(=O)N[C@@H](CC(C)C)C(=O)N[C@@H](CC(N)=O)C(=O)N[C@@H](CO)C(=O)N[C@@H](CCSC)C(=O)N[C@@H](CCC(=O)O)C(=O)N[C@@H](CCCNC(=N)N)C(=O)N[C@H](C(=O)N[C@@H](CCC(=O)O)C(=O)N[C@@H](Cc1c[nH]c2ccccc12)C(=O)N[C@@H](CC(C)C)C(=O)N[C@@H](CCCNC(=N)N)C(=O)N[C@@H](CCCCN)C(=O)N[C@@H](CCCCN)C(=O)N[C@@H](CC(C)C)C(=O)N[C@@H](CCC(N)=O)C(=O)N[C@@H](CC(=O)O)C(=O)N[C@H](C(=O)N[C@@H](Cc1c[nH]cn1)C(=O)N[C@@H](CC(N)=O)C(=O)N[C@@H](Cc1ccccc1)C(=O)N[C@H](C(=O)N[C@@H](C)C(=O)N[C@@H](CC(C)C)C(=O)O)C(C)C)C(C)C)C(C)C | PTH1R | cAMP, agonist | – | – | – | EC50 | 0.000263 µM
N#C/C(=C\c1cccc(-c2cn[nH]c2)c1)C(N)=O | RPS6KA3 (Homo sapiens, UniProt P51812) | inhibitor, Western blot | transfected COS-7 | added: PMA | – | EC50 | ~20 µM
O=C(O)C1CCC1 | FFAR3 | agonist | – | – | – | EC50 | 126 µM
N=C(N)NCCC[C@H](NC(=O)[C@H](Cc1ccccc1)NC(=O)[C@@H](N)CO)C(=O)N[C@@H](CC(N)=O)C(=O)NCC(N)=O | NPSR1 (Homo sapiens, UniProt Q6W5P4, N107I) | cAMP, agonist, TR-FRET | – | – | – | EC50 | 3.06 µM
CC(C)C[C@H](NC(=O)[C@@H](Cc1c[nH]c2ccccc12)NC(=O)[C@H](Cc1ccc(O)cc1)NC(=O)[C@H](CO)NC(=O)[C@H](Cc1c[nH]c2ccccc12)NC(=O)[C@H](Cc1c[nH]cn1)NC(=O)[C@@H]1CCC(=O)N1)C(=O)N[C@@H](CCCNC(=N)N)C(=O)N1CCC[C@H]1C(=O)NCC(N)=O | Gonadotropin-releasing hormone receptor (Rattus norvegicus, UniProt P30969) | inositol phosphate accumulation, agonist | HEK293 expressing Gonadotropin-releasing hormone receptor | 60 min, 37 °C, added: 10 mM LiCl | – | EC50 | 0.00014 ± 1e-05 µM
N=C(N)NCCC[C@@H]1NC(=O)[C@H](CCCCNC(=O)CNC(=O)CNC(=O)CNC(=O)CC[C@H](NC(=O)CNC(=O)CNC(=O)CNC(=O)CC[C@H](NC(=O)CN2CCN(CC(=O)O)CCN(CC(=O)O)CCN(CC(=O)O)CC2)C(=O)NCC(=O)NCC(=O)NCC(=O)N[C@@H](CCC(=O)NCC(=O)NCC(=O)NCC(=O)NCCCC[C@@H]2NC(=O)[C@@H](Cc3ccccc3)NC(=O)[C@H](CC(=O)O)NC(=O)CNC(=O)[C@H](CCCNC(=N)N)NC2=O)C(=O)NCC(=O)NCC(=O)NCC(=O)NCCCC[C@@H]2NC(=O)[C@@H](Cc3ccccc3)NC(=O)[C@H](CC(=O)O)NC(=O)CNC(=O)[C@H](CCCNC(=N)N)NC2=O)C(=O)NCC(=O)NCC(=O)NCC(=O)NCCCC[C@@H]2NC(=O)[C@@H](Cc3ccccc3)NC(=O)[C@H](CC(=O)O)NC(=O)CNC(=O)[C@H](CCCNC(=N)N)NC2=O)NC(=O)[C@@H](Cc2ccccc2)NC(=O)[C@H](CC(=O)O)NC(=O)CNC1=O [indium-111 labelled] | – | – | female athymic nu/nu mice, liver | intravenous, 24 h | – | tissue uptake | 2.46 ± 0.36 %ID/g
O=C(O)/C=C/c1cccc(NC(=O)c2cc(-c3ccccc3)ccc2F)c1 | PTGIR (Homo sapiens, UniProt P43119) | calcium signal, agonist, fluorescence | – | – | – | EC50 | > 10 µM

Excerpt of the above:
Structure (SMILES) | target or system | test | test system | setting | how to read | endpoint | result
CC(C)COC1O[C@@H]2O[C@@]3(C)CC[C@H]4[C@H](C)CCC([C@H]1C)[C@@]24OO3 (stereo partly shown) | ABCB1 (Homo sapiens, UniProt P08183) | transport inhibition, inhibitor, flow cytometry | CEM/ADR5000 leukaemia | added: calcein-AM 1 µM | – | EC50 | 61.8 ± 9.62 µM
CCCC(=O)O | FFAR3 | agonist | – | – | – | EC50 | 107 µM
CC(C=O)Cc1ccc(C(C)(C)C)cc1 (stereo not shown) | Olfactory receptor 2A7 (OR2A7, Homo sapiens, UniProt Q96R45) | GFP reporter gene, agonist | yeast expressing OR2A7 | 4 h, 1% DMSO | – | EC50 | 110 µM
CC[C@H](C)[C@H](NC(=O)[C@H](CCC(=O)O)NC(=O)[C@H](CO)NC(=O)[C@@H](NC(=O)[C@@H](N)CO)C(C)C)C(=O)N[C@@H](CCC(N)=O)C(=O)N[C@@H](CC(C)C)C(=O)N[C@@H](CCSC)C(=O)N[C@@H](Cc1c[nH]cn1)C(=O)N[C@@H](CC(N)=O)C(=O)N[C@@H](CC(C)C)C(=O)NCC(=O)N[C@@H](CCCCN)C(=O)N[C@@H](Cc1c[nH]cn1)C(=O)N[C@@H](CC(C)C)C(=O)N[C@@H](CC(N)=O)C(=O)N[C@@H](CO)C(=O)N[C@@H](CCSC)C(=O)N[C@@H](CCC(=O)O)C(=O)N[C@@H](CCCNC(=N)N)C(=O)N[C@H](C(=O)N[C@@H](CCC(=O)O)C(=O)N[C@@H](Cc1c[nH]c2ccccc12)C(=O)N[C@@H](CC(C)C)C(=O)N[C@@H](CCCNC(=N)N)C(=O)N[C@@H](CCCCN)C(=O)N[C@@H](CCCCN)C(=O)N[C@@H](CC(C)C)C(=O)N[C@@H](CCC(N)=O)C(=O)N[C@@H](CC(=O)O)C(=O)N[C@H](C(=O)N[C@@H](Cc1c[nH]cn1)C(=O)N[C@@H](CC(N)=O)C(=O)N[C@@H](Cc1ccccc1)C(=O)N[C@H](C(=O)N[C@@H](C)C(=O)N[C@@H](CC(C)C)C(=O)O)C(C)C)C(C)C)C(C)C | PTH1R | cAMP, agonist | – | – | – | EC50 | 0.000263 µM
